Experimental data from different studies.
Protocols differ between the studies behind these lines. Several values in a cell are separate wells, animals, samples, runs or records. ± gives the spread as reported.

SMILES | assay | system | conditions | scale | quantity | value
Cc1ccc(Sc2ccccc2N2CCNCC2)c(C)c1 | item: Somnolence | healthy adult men | oral, 10 mg daily, 12 days | – | participants with TEAE | 0%
O=C(Nc1ccc(OC(F)(F)Cl)cc1)c1cnc(N2CC[C@@H](O)C2)c(-c2ccn[nH]2)c1 | – | human patients | oral, dose not given, dose-finding, any grade | relative to: records | lipase increase incidence | 9.2%
Cc1c(Cl)c(C)[n+]([O-])c(Cl)c1-c1noc(-c2cc(O)c(O)c([N+](=O)[O-])c2)n1 | item: Belching | healthy Chinese subjects | oral, 25 mg, 4 days | – | adverse drug reaction incidence | 6.7%
COc1cc(Nc2ncc3c(n2)-c2ccc(Cl)cc2C(c2c(F)cccc2OC)=NC3)ccc1C(=O)O | item: Tracheitis, grade 4 | cancer patients, phase 1/2 | oral, dose not given, added: pembrolizumab | – | patients with adverse event | 4%
C[C@@H]1CCO[C@H]2Cn3cc(C(=O)NCc4ccc(F)cc4F)c(=O)c(O)c3C(=O)N12 | – | human paediatric patients, weight sample E to under sample F kg, plasma | oral, 50 mg film-coated tablet, 24 h, steady state, geometric mean, population PK post-hoc, N 7 | – | trough concentration (C24) | 553 ng/mL
N#C[C@@]1(c2ccc3c(N)ncnn23)O[C@H](CO)[C@@H](O)[C@H]1O | – | dog, plasma | oral, 5 mg/kg, solution, recalculated NCATS data | – | AUC(0-t) | 19100 ng·h/mL
C[C@H]1Oc2cc(cnc2N)-c2c(nn(C)c2C#N)CN(C)C(=O)c2ccc(F)cc21 | population PK | patients with mild hepatic impairment (NCI sample A), plasma | oral, 100 mg, mean, single dose | – | clearance | 143 mL/min
CCn1cc(C(=O)N2CCOCC2)c(=O)c2cc(NC3Cc4ccccc4C3)cnc21 | – | human, fed | oral suspension, 600 mg/day twice daily, day 8, arithmetic mean | – | CL/F | 32.5 L/h
CC(C)(C(=O)N1CCOc2c(C#N)cncc2C1)C(F)F | item: abdominal discomfort | human | oral, 20 mg once daily, 14 days, multiple ascending dose | – | subjects with adverse event | 0%
COc1ccc(/C=N/NC(=O)Cn2c(-c3ccc(S(C)(=O)=O)cc3)nc3cc(C)ccc32)cc1 | – | rat, stomach | concentration not given, 4 h | relative to: normal control | ulcer preventive index | 65.3%
COc1cc(C(=O)N2CCC3(CC2)CC(=O)c2c(cnn2C(C)C)C3)cc(-c2ccc(C(=O)O)cc2)n1 | item: total cholesterol | human, fasting serum | 1 mg every 12 h, day 13, adjusted geometric mean | relative to: baseline and placebo | placebo-adjusted change from baseline | -1.9%
C[C@@H]1CN(CC(=O)N2CC(C)(C)c3nc(CO)c(Cc4ccc(F)cc4)cc32)[C@@H](CN2CCOC[C@H]2C)CN1 | – | male Sprague Dawley rats, bile duct cannulated, bile | intravenous, 5 mg/kg, 24 h | relative to: dose | unchanged drug excreted | 6%
CNC(=O)c1ccc(-c2cnc3ncc(Cc4ccc5ncccc5c4)n3n2)cc1F | – | Japanese patients | oral, 400 mg, grade 3/4 | – | γGT increased patients | 1%
O=C([O-])CN1CCN(CC(=O)[O-])CCN(CC(=O)[O-])CCN(CC(=O)[O-])CC1.[Gd+3] | LC-ICP-MS | human plasma | pH 7.4, 37 °C | – | dissociation rate | not detected
CC(=O)O[C@H]1C(=O)[C@@]2(C)[C@H]([C@H](OC(=O)c3ccccc3)[C@]3(O)C[C@H](OC(=O)[C@H](O)[C@@H](NC(=O)c4ccccc4)c4ccccc4)C(C)=C1C3(C)C)[C@]1(OC(C)=O)CO[C@@H]1C[C@@H]2O | item: Dysgeusia | patients with advanced solid tumours | intravenous, dose not given, all grades, possibly related to drug | – | adverse event incidence | 28%
C[C@@H](N)C1CCN(S(=O)(=O)c2cccc3cnccc23)CC1 | – | healthy volunteers | 25 mg, fasted | – | discontinuations due to TEAEs | 0%
CC1(COc2ccc3c(c2)ncn3-c2ccc3cccc(N4CCC(N)CC4)c3n2)COC1 | – | human patients, recurrent/progressive HGG or DIPG, serum | oral, 220 mg/m^2, day 1, median | – | CL/F | 27.9 L/h/m²
Cc1ccc(N(C)C(=O)/C=C/c2ccco2)cc1 | hot plate test | mice | oral, 30 mg/kg daily for 7 days, 0 min, day 8 | – | licking latency | 14.7 ± 0.3 s
Cc1cccc(CNC(=O)c2cn(CCNC(=O)c3ccccc3Sc3c([N+](=O)[O-])ncn3C)c3cc4c(cc3c2=O)OC(F)(F)O4)n1 | – | Sprague-Dawley rat, male, whole blood | intramuscular, 30 mg/kg of parent drug | – | bioavailability | 34.2 ± 20.6%
NC1(C(=O)N[C@@H](CCO)c2ccc(Cl)cc2)CCN(c2nc[nH]c3nccc2-3)CC1 | – | metastatic CRPC patients | 480 mg b.i.d., grade 3 to 4, treatment-related, added: enzalutamide 160 mg daily | – | incidence of white blood cell decreased | 0%
Nc1ncnc2c1c(Oc1cc(C(F)(F)F)ccn1)nn2[C@@H]1CCCC[C@H]1O | – | rabbit, liver microsomes | – | – | metabolic stability | stable
OCc1nc2ccc(NCc3ccc(C(F)(F)F)cc3)cc2[nH]1 | rapid equilibrium dialysis | mouse brain homogenate | 2 µM, 4 h, 37 °C | – | brain homogenate binding | 95.5%
CN1C(=O)[C@@H](NC(=O)c2nnc(Cc3ccccc3)[nH]2)COc2cccnc21 | – | human, both sexes | oral, 600 mg | – | t½ | 6 to 9 h
C[C@@H]1OC(=O)[C@H](Cc2ccccc2)[C@H]1O | aerobic dark soil incubation | clay soil | 20 °C, persistence endpoint | – | DT50 | 0.13 days
O=C(O)CCC(=O)O.[2H]C([2H])([2H])Oc1cc(C)c2[nH]ccc2c1CN1CC[C@@H](C2CC2)C[C@H]1c1ccc(C(=O)O)cc1 | – | healthy Chinese subjects | 400 mg, single ascending dose | – | TEAE urine leukocyte positive | 0%
CCCOc1ccc([C@H]2CNC(=O)N2c2ccc3[nH]cnc3c2)cc1 | – | human elderly fasted, CSF | oral, 500 mg twice daily tablet, day 11, geometric mean | – | AUC(0-24h) | 716 ng·h/mL
O=C(Nc1c2c(cc3c1CCC3)CCC2)NS(=O)(=O)/C=C/c1nccs1 | – | rat liver microsomes | 1 µM | – | metabolic rate | 0.006 nmol/min/mg protein
CSc1cc(Oc2ccnc3[nH]c(=O)cnc23)ccc1NC(=O)Nc1cc(C(C)(C)C)nn1-c1ccccc1 | – | female nude mice, tumour-bearing | oral, 20 mg/kg, 1 h after last dose | – | tumour concentration | 8.1 µM

SMILES | assay | system | conditions | scale | quantity | value
CCn1c(C(=O)N(C2CC2)C2CC2)cc2c3c(ncn3C)c(Nc3cc(C)n(C)n3)nc21 | – | cancer patients | oral, 200 mg single dose, day 1, 6.0 h | – | plasma concentration | 1230 ng/mL
[18F]c1ccc(-c2ccc3c(c2)[nH]c2ccncc23)cn1 | ex vivo biodistribution | APP/PS1 mouse, AD model, thalamus | intravenous, 30 min | – | SUV | 0.326 ± 0.041
N#Cc1ccc2c(c1)[C@H]1CCCN(C(=O)c3ccc4[nH]cnc4c3)[C@H]1C2 | – | human males | 240 mg, day 15 | – | SHBG level | 24 nmol/L
COc1ccnc(C(N)=O)c1O | aerobic dark soil incubation | silt loam soil | 20 °C, persistence endpoint | – | DT50 | 8.9 days
Cc1cc(-c2nnc(N)nc2-c2ccc(F)cc2)cc(Cl)n1 | item: myositis, grade ≥ 3 | post-IO NSCLC patients | oral, 100 mg once daily | – | incidence of AE, immune-mediated, treatment-related | 0%
CC(C)(C)OC[C@@H]1C(=O)NCCN1C(=O)C[C@H](N)Cc1cc(F)c(F)cc1F | item: blood and lymphatic disorders | healthy Korean men | oral, dose not given | – | number of TEAEs | 1
C=CCN1CC(=O)N2[C@@H](Cc3ccc(O)cc3F)C(=O)N(Cc3cccc(N4CC(N5CCN(CC)CC5)C4)n3)C[C@@H]2N1C(=O)NCc1ccccc1 | – | advanced solid tumour patients | oral, 80 mg twice daily, grade ≥3, dose-escalation | – | any treatment-related adverse event | 0%
Cc1cc(NC2CCN(C(=O)OC3CCN(C(=O)/C=C/CN(C)C)C3)CC2)n2ncc(C(C)C)c2n1 (stereo not shown) | Phase I dose escalation CTCAE v4.0, item: Diarrhea | patients with advanced solid tumours | dose not given, all dose schedules any grade | – | patients with adverse event | 43%
Cc1nc(-c2ccc(OCC(C)C)c(C#N)c2)sc1C(=O)O | – | healthy Chinese subjects | oral, 40 mg single, fed | – | participants with AEs | 25%
O=C(Nc1nc2cccc(-c3ccc(CN4CCS(=O)(=O)CC4)cc3)n2n1)C1CC1 | item: blood and lymphatic disorders | rheumatoid arthritis patients | oral, 150 mg once daily, 4 weeks, any relatedness | – | treatment-emergent adverse events | 0%
C[C@@H](Nc1cc(F)cc(F)c1)c1cc(C(=O)N(C)C)cc2c(=O)cc(N3CCOCC3)oc12 | – | advanced solid tumour patients | oral, 60 mg twice daily, continuous monotherapy | – | any dose reduction | 0%
Cc1ccc([C@@H]2O[C@H](CO)[C@@H](O)[C@H](O)[C@H]2O)cc1Cc1ccc(-c2ccc(F)cc2)s1 | – | Japanese type 2 diabetes patients | 25 mg, day 6, 24 h urine collection | relative to: baseline | urinary chloride excretion change | -37.1 mEq
CCc1nn(C)c2nc(-c3ccc(C(=O)O)cc3)nc(NCc3ccc(F)cc3)c12 | – | NSG mice | dose not given, day 4 of treatment | – | body weight | 20 g and 20.8 g and 20.9 g and 22.1 g
COc1ccc(/S(C)=N\C(=O)C(C)(C)C)cc1 (stereo not shown) | – | human liver microsomes | – | relative to: hepatic blood flow | metabolic stability | 27%
C=CC(=O)Nc1cc(Nc2nccc(-c3cn(C)c4ccccc34)n2)c(OC)cc1N(C)CCN(C)C | storage stability | human plasma samples | 30 d, -80 °C, MQC level | relative to: nominal concentration | percentage recovery | 10.9%
CCCCN(Cc1c(-c2ccccc2)nc2ccc(C)cn12)c1cccc(C(F)(F)F)c1 | – | peritoneal macrophages, Swiss mice | 5 days, 5% fetal calf serum | – | CC50 | 7.94 µM
Cn1cncc1-c1c(F)cncc1NC(=O)c1c(N)nn2cc(F)cnc12 | – | patients, advanced solid tumours | oral, 180 mg once daily, 2 weeks on 1 week off | relative to: patients | grade ≥1 adverse events | 100%
CCN1CCN(Cc2ccc(NC(=O)c3ccc(C)c(NC(=O)c4cncc(-c5cccs5)c4)c3)cc2C(F)(F)F)CC1 | LC-MS/MS | C57BL/6 mouse, plasma | intraperitoneal, 20 mg/kg single dose, 0.25 h | – | plasma concentration | 621 ng/mL and 581 ng/mL and 639 ng/mL
CCCCC[C@H](O)CC[C@@H]1[C@H]2Cc3cccc(OCC(=O)O)c3C[C@H]2C[C@H]1O | LC-MS/MS | Japanese PAH patients, plasma | inhaled, 54 µg, no background PAH therapy | – | geometric mean Cmax | 0.6 ng/mL
CCOc1c([C@H](C)n2nc(C)c3c(N)ncnc32)cc(Cl)c(F)c1[C@@H]1CNC(=O)C1 | item: QTcF ≤450 ms | previously treated B-cell malignancy | oral, 10 mg once daily, overall population | – | ECG observations | 100%
O=C1NCCc2nc(OCc3cccc(F)c3)ccc21 | item: Irritability | Sprague-Dawley rat male | oral, 100 mg/kg, 30 min | direction not given | Irwin test score | 0
COc1cc(NC(=O)CCN2CCC(OC(=O)Nc3ccccc3-c3ccccc3)CC2)c(Cl)cc1CNC[C@H](O)c1ccc(O)c2[nH]c(=O)ccc12 | equilibrium dialysis | rat, lung homogenate | – | – | fraction unbound | 0.00048
Oc1ccc(/C=C/c2cc(O)cc(O)c2)cc1 | – | rat, azoxymethane-injected, blood at sacrifice | 10 mg/kg | – | creatinine | 0.29 mg/dL and 0.33 mg/dL and 0.32 mg/dL
CCc1c(-c2ccccc2)c(-c2ccccc2)nn1-c1ccccc1-c1cccc(OCC(=O)O)c1 | – | Sprague-Dawley rat | intravenous, dose not given | – | AUMC extrapolated observed | 14% and 8.86% and 20.7%
CC[C@H](C)[C@H](NC(=O)[C@H](Cc1ccccc1)NC(=O)[C@H](CCC(=O)O)NC(=O)[C@H](CCCCNC(=O)COCCOCCNC(=O)COCCOCCNC(=O)CC[C@H](NC(=O)CCCCCCCCCCCCCCCCC(=O)O)C(=O)O)NC(=O)[C@H](C)NC(=O)[C@H](C)NC(=O)[C@H](CCC(N)=O)NC(=O)CNC(=O)[C@H](CCC(=O)O)NC(=O)[C@H](CC(C)C)NC(=O)[C@H](Cc1ccc(O)cc1)NC(=O)[C@H](CO)NC(=O)[C@H](CO)NC(=O)[C@@H](NC(=O)[C@H](CC(=O)O)NC(=O)[C@H](CO)NC(=O)[C@@H](NC(=O)[C@H](Cc1ccccc1)NC(=O)[C@@H](NC(=O)CNC(=O)[C@H](CCC(=O)O)NC(=O)C(C)(C)NC(=O)[C@@H](N)Cc1cnc[nH]1)[C@@H](C)O)[C@@H](C)O)C(C)C)C(=O)N[C@@H](C)C(=O)N[C@@H](Cc1c[nH]c2ccccc12)C(=O)N[C@@H](CC(C)C)C(=O)N[C@H](C(=O)N[C@@H](CCCNC(=N)N)C(=O)NCC(=O)N[C@@H](CCCNC(=N)N)C(=O)NCC(=O)O)C(C)C | 12-lead Holter ECG | healthy humans | subcutaneous, 1.5 mg once weekly, 24 h, steady state | relative to: placebo | QTcB change from baseline | 11 ms
CCc1cc(C(=O)NC)c2nccc(N3CCc4c(cc(Cn5ccnc5)cc4-c4cn(C)nc4C(F)(F)F)C3=O)c2c1 | – | Sprague Dawley rat | oral, 100 mg/kg once daily, 7 days | relative to: vehicle | heart weight change | -2.44%
CC[C@H](C)[C@@H]([C@@H](CC(=O)N1CCC[C@H]1[C@H](OC)[C@@H](C)C(=O)N[C@@H](Cc1ccccc1)C(=O)O)OC)N(C)C(=O)[C@@H](NC(=O)[C@@H](NC)C(C)C)C(C)C | item: sum of compound and compound-HPA | Sprague Dawley rat, feces | intravenous, dose not given, 120 h, dosed as NaPi2b ADC, recovery-corrected | relative to: dose | excreted in feces | < 2%
